Measured values of several laboratories.
Each numbered part is a random draw from the data of one study; scales do not carry over between parts. Changes are numbered by the printed parent chain.

Study 1 — target: CCND2, cyclin fold, Cln2 fusion (human); technique: yeast growth competition, sequencing; medium: yeast; notes: weak parent motif; relative to: not given; direction: higher = stronger binding
Parent: WEE1 docking peptide (human); HKTFRKLRLFDTP; partner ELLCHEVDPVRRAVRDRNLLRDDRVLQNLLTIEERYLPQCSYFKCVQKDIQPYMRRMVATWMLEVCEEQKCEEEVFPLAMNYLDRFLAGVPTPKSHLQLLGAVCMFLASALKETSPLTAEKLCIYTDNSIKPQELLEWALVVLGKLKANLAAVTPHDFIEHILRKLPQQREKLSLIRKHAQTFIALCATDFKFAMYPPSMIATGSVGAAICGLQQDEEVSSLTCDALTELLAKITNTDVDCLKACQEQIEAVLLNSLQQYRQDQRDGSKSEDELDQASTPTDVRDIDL
Change | normalised enrichment score
HKTFRKLRLFDAP [T12A] | -0.00147
HKTFRKLRTFDTP [L9T] | -0.178
HKTFRKLNLFDTP [R8N] | 0.0161
HKTFRKLRLQDTP [F10Q] | -0.635
HKTFRKLRLFDTH [P13H] | -0.201
HKTFRKLRLFDNP [T12N] | 0.47
HKTFRKLDLFDTP [R8D] | 0.0899
HKAFRKLRLFDTP [T3A] | -0.111
HKTFRKLRLLDTP [F10L] | -0.0308
HKTYRKLRLFDTP [F4Y] | -0.129
HKTFRKLRLFYTP [D11Y] | -0.18
HKTFRPLRLFDTP [K6P] | 0.118
HKTFRKLRLFVTP [D11V] | -0.127
HKTFRKLRNFDTP [L9N] | -0.14
HKTFRKLRLFATP [D11A] | -0.0233
HKTFPKLRLFDTP [R5P] | -0.352
HKTFRKLRLFDKP [T12K] | -0.115
HKTSRKLRLFDTP [F4S] | 0.211
HKTGRKLRLFDTP [F4G] | -0.08
HKTFRNLRLFDTP [K6N] | 0.382
HKTFRKLRLFDDP [T12D] | 0.364
HKTFRKLFLFDTP [R8F] | -0.386
KKTFRKLRLFDTP [H1K] | 0.9

Study 2 — technique: protein-binding microarray; molecule type: double-stranded DNA, one strand shown; medium: in vitro; tested at: 250 nM; notes: 60-bp whole probe; together with: salmon DNA 0.4 mg/ml; relative to: random background probes; direction: higher = stronger binding; all sequences stand within: GCCTAGCAC … GTCTTGATTCGCTTGACGCTGCTG
Target: Interferon regulatory factor 7, full length, phosphomimetic (IRF7, Homo sapiens, UniProt Q92985, residues 1-503, S101K/S471D/S472D/S475D/S476D/S477D/S483D/S484D/S487D)
Sequence of UniProt Q92985 (whole entry, unmodified, looked up): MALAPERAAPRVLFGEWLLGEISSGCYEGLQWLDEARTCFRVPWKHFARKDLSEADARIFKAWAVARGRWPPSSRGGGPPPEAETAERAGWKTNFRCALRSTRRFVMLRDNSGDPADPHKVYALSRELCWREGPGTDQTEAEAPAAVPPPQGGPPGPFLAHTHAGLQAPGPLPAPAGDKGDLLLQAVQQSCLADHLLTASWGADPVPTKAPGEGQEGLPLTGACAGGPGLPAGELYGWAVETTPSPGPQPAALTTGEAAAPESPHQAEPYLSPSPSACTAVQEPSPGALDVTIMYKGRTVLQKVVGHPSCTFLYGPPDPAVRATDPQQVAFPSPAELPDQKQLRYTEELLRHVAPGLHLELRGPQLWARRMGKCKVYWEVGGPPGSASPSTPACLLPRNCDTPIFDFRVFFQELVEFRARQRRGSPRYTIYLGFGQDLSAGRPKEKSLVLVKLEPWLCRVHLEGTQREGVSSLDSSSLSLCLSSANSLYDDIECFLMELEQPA
Sequence | log fluorescence [z-score]
TTAGAACTGGGGACCGGATTAGTGCTA | 0.152
GACGGTATCCTTCTCCCGACGTGCTAG | 0.197
GACGGACTGAGACTGGGGACGTGCTAG | -0.188
TTAGATATCAGACTGGATTCGTGCTAG | 0.0798
TCAGCTACACATCTCACACTGTGCTAG | -0.129
TTAGGTTTCGCGACTGGGTTAGTGCTA | 1.36
GACGGACAGGGTTTCGGGACGTGCTAG | 1.55
TCACATTTAATTATATGACTGTGCTAG | 0.838
TTAGGTATCCTTTGCCTTTAGTGCTAG | 0.136
GACGGTTTCCTTTTCGTGACGTGCTAG | 6.17
GACGATCTCGGTCTCGAGACGTGCTAG | 0.468
TTAGTTTTCAGTTCCGATTAGTGCTAG | 4.01
GACGATTTCGTGTTTCGAGACGTGCTA | 2.59
AGCTGTTTGAGAAATCAGATGGTGCTA | -0.275
GACGAACTGAGTTTCGGGACGTGCTAG | 2.53
TTAGATATCAGTCTCTATTAGTGCTAG | 0.416
TTAGATTTCTGGACTGGATTAGTGCTA | 0.00339
TTAGGACTGGACTTTCGGTTGGTGCTA | 0.789
GACGGTATCGACTATCGAGACGTGCTA | 0.076

Study 3 — technique: protein-binding microarray; molecule type: double-stranded DNA, one strand shown; medium: in vitro; tested at: 0.8 µM; notes: whole 60-bp probe, no competitor; direction: higher = stronger binding
Target: Centromere-binding protein 1, full length, N-terminal tag (CBF1, Saccharomyces cerevisiae, UniProt P17106, residues 1-351)
Sequence of UniProt P17106 (whole entry, looked up): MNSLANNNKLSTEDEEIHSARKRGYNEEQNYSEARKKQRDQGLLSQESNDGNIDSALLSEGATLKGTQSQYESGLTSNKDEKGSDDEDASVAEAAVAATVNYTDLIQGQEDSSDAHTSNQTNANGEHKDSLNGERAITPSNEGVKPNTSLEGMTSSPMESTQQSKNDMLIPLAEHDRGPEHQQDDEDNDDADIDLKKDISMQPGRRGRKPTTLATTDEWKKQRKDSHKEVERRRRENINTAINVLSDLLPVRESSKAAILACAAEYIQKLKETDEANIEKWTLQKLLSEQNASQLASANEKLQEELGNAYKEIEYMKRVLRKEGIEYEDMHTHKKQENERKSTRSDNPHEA
Sequence | fluorescence intensity [a.u.]
CCTAACTACTATAATTATGTGACATAGCTTCGTACAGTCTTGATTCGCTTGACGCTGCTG | 526
CTAACGTGAAATGTGCACGGGGAAATGATCGCCTTCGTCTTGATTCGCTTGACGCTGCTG | 659
GAACTAGAATTAAGTGAGGTGACAAGGTTTCCATAGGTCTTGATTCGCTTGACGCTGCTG | 520
CTAAGTTGCCAAGCCAACGTGATGTCACAGGTCTTCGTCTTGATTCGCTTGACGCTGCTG | 891
CTAAACGTAAATACCAACGTGTGCTATCGCATTTTCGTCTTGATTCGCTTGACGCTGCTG | 542
GAAGAATGTAAGCGTGACATAACTAATTACATGTAGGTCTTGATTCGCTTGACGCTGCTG | 1150
CTAGGAGGGTATAATCACATGCAGATATAATTTTTCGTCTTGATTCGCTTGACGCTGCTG | 1420
GAAACAACCTTGGACTTCGTGGTATTTTGATCCTAGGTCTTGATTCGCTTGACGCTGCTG | 520
CCTAACTACTATAATGGTGATGAATAGCTTCGTACAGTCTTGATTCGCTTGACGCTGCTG | 497
GAAGGATTGCAAGGGCACGCTAGTTGGATGTGCTAGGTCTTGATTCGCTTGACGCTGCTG | 510
GAAATACATACAGAGCACATGCATGCCATATGATAGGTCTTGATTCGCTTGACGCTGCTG | 842
GAATTGTACTTGTTTCATCAGATTCTTACATCATAGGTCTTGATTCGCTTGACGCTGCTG | 513
CTAATCGGGCAAAAAAACGTGCTAAATGACAGGTTCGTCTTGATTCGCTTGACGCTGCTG | 803
GAAGCAGAGGAGCGTCACCGGTAACCCTGAATATAGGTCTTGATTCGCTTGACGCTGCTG | 476

Mixed results
Molecule | target | assay | system | setting | how to read | endpoint | result
PhoQ, residues 284 288 289 292 302 303 SASVAL | PhoP, residues 12 14 15 18 19 IFFTR (Escherichia coli, UniProt P23836) | Sort-seq, item: YFP reporter | E. coli | PhoQ-PhoP variant library, together with: 10 µM Mg2+ | relative to: high Mg2+ state, higher = stronger signaling | fold induction | 19.1

Repeated from above (study 1):
Change | normalised enrichment score
HKTFRKLRLQDTP [F10Q] | -0.635
HKTFRPLRLFDTP [K6P] | 0.118
HKTFRKLRLLDTP [F10L] | -0.0308
HKTFRKLRLFYTP [D11Y] | -0.18
HKTFRKLFLFDTP [R8F] | -0.386
HKTFRKLRLFATP [D11A] | -0.0233
HKTFRKLRLFDAP [T12A] | -0.00147
